Assay results collected from several papers.
± gives the spread as reported.
Organism: Plasmodium falciparum

[N-]=[N+]=[N-]
IC50 (oxygen consumption; K1): > 500 µM

CC(C)=CCC1=C(O)C(=O)c2ccccc2C1=O
IC50 (parasite growth; W2; drug-resistant strain, blood stage): 93 µM

N=C(N)c1ccc(-c2ccc(-c3ccc(C(=N)N)nc3)cc2)cn1
IC50 (parasite growth; K1): ≤ 0.0006 µM

CCCCc1ccc(/C=C2\N=C(c3ccc[nH]3)C=C2OC)[nH]1
IC50 (parasite growth; D6; 72 h): > 1.7 µM

CCN(CC)CCCC(C)Nc1ccnc2cc(Cl)ccc12 (stereo not drawn)
IC50 (parasite growth, SYTOX green flow cytometry; K1 chloroquine-resistant; 48 h, ring stage): 0.0662 ± 0.0101 µM

CCCC1(CCC)CCC2(CCN(CCCN(C)C)C2)CC1
IC50 (parasite proliferation, SYBR Green; 3D7; 72 h): 0.3 µM

NC(N)=Nc1ccc(-c2ccc(-c3ccc(N=C(N)N)c(Cl)c3)o2)cc1Cl
IC50 (parasite growth, SYBR green I; INDO or Cam3.1 R539T, human red blood cells; 72 h): < 1 µM

O=C(C=Cc1ccc[nH]1)NCC(=O)NC12CC3CC(CC(C3)C1)C2
IC50 (parasite growth; Dd2, chloroquine-resistant): > 2.5 µM

CCCCCCC(C)CC1=C(O)C(=O)c2ccccc2C1=O (stereo not drawn)
IC50 (parasite growth, [3H]hypoxanthine incorporation; TM91C235 multidrug-resistant, human erythrocytes): 0.348 µM

CCN(CC)CCOc1ccc2c(=O)c3cc(F)c(OCCN(CC)CC)cc3[nH]c2c1
IC50 (D6): > 0.116 µM

CCN(CC)CCCC(C)Nc1ccnc2cc(Cl)ccc12 (stereo not drawn)
IC50 (parasite growth; W2; drug-resistant strain, blood stage): 0.116 µg/mL

CCCc1ccc(/C=C2\N=C(c3ccc[nH]3)C=C2OC)[nH]1
IC50 (parasite growth; D6; 72 h): > 1.7 µM

CCN(CC)CCCC(C)Nc1ccnc2cc(Cl)ccc12 (stereo not drawn)
IC50 (parasite growth; K1; drug-resistant strain, blood stage): 0.293 µM

CCN(CC)CCCC(C)Nc1ccnc2cc(Cl)ccc12 (stereo not drawn)
IC50 (parasite growth; W2; 48 h, drug-resistant strain, blood stage): 0.0364 µM

CC(C)=CCC/C(C)=C/CNCCOc1cccc2ccccc12
IC50 (parasite growth; 3D7; blood stage): > 100 µg/mL

CCCCCCC[N+](CC)(CC)CCCCc1ccc(Cl)cc1
IC50 (parasite proliferation, SYBR Green; 3D7; 72 h): 0.524 µM

CC(C)=CCC/C(C)=C/COCC(=O)NC1C2CC3CC(C2)CC1C3 (stereo not drawn)
IC50 (parasite growth; 3D7; blood stage): 3.8 µg/mL

CCN(CC)CCOc1ccc2c(c1)C(=O)c1cc(OCCN(CC)CC)ccc1-2
IC50 (parasite proliferation, SYBR Green; 3D7; 72 h): 1 µM

O=C1C(O)=C([C@H]2CC[C@H](c3ccc(Cl)cc3)CC2)C(=O)c2ccccc21
IC50 (growth, hypoxanthine incorporation; D6 chloroquine-sensitive, human erythrocytes): 0.00034 µM

O=CCCCCCCCCCOCCCc1cccnc1
IC50 (anti-HRPII ELISA; W2 chloroquine-resistant; 72 h): 20.3 ± 0.2 µM

CC(C)=CCC/C(C)=C/CNCCOC(C)(C)C
IC50 (parasite growth; 3D7; blood stage): 3.2 µg/mL

C[C@H]1[C@@H](O)O[C@@H]2O[C@@]3(C)CC[C@H]4[C@H](C)CC[C@@H]1[C@@]24OO3
IC50 (parasite growth; K1, multidrug-resistant): 0.0036 µM

CC(C)=CCC/C(C)=C/CNCCCOC1C2CC3CC(C2)CC1C3 (stereo not drawn)
IC50 (parasite growth; 3D7; blood stage): 0.83 µg/mL

FCCCCCCCCCCOCCCc1cccnc1
IC50 (anti-HRPII ELISA; W2 chloroquine-resistant; 72 h): 2.5 ± 0.1 µM

C[C@@H]1N[C@H](CCCCCCCCCCc2cc(CCCCCCCCCC[C@@H]3CC[C@@H](O)[C@H](C)N3)c3[n+](c2)CCC3)CC[C@H]1O.[Cl-]
IC50 (parasite growth; W2; 72 h, drug-resistant strain, blood stage): 0.27 µg/mL

COc1cc(/C=C/c2ccc([N+](=O)[O-])cc2)oc(=O)c1
IC50 (parasite growth; K1; drug-resistant strain, blood stage): < 10 µM

CC(C)[C@@H]1NC(=O)[C@H](C)OC(=O)[C@@H](C(C)C)NC(=O)[C@@H](C(C)C)OC(=O)[C@H](C(C)C)NC(=O)[C@H](C)OC(=O)[C@@H](C(C)C)NC(=O)[C@@H](C(C)C)OC(=O)[C@H](C(C)C)NC(=O)[C@H](C)OC(=O)[C@@H](C(C)C)NC(=O)[C@@H](C(C)C)OC1=O
IC50 (parasite proliferation, SYBR Green; 3D7; 72 h): 0.0071 µM

CC(C)=CC1=C(O)C(=O)c2ccccc2C1=O
IC50 (parasite growth; W2; drug-resistant strain, blood stage): 26.9 µM

COc1ccc2cc3[n+](cc2c1OC)CCc1cc2c(cc1-3)OCO2
IC50 (parasite proliferation, SYBR Green; 3D7; 72 h): 0.5 µM

NC(=O)c1cccc(O)c1O
IC50 (parasite growth; K1, multidrug-resistant): 40.1 µM

N=C(N)c1ccc(-c2ccc(-c3cnc(C(=N)N)nc3)cc2)cc1
IC50 (parasite growth; K1): ≤ 0.0006 µM

CC(CCCCCC(F)(F)F)CC1=C(O)C(=O)c2ccccc2C1=O (stereo not drawn)
IC50 (parasite growth, [3H]hypoxanthine incorporation; W2 chloroquine-resistant, human erythrocytes): 0.065 µM

COC[C@H]1C(=O)NCC(=O)N2NCCC[C@H]2C(=O)N(O)[C@H](C)C(=O)O[C@@H](C(C)C)[C@H](NC(=O)[C@](C)(O)[C@]2(O)CC[C@@H](CC(C)C)[C@H](C)O2)C(=O)N2NCCC[C@@H]2C(=O)N1O
IC50 (parasite proliferation, SYBR Green; 3D7; 72 h): 0.092 µM

O=C(NCCN1CCCC1)c1cc(-c2ccc(CN3CCOCC3)cc2)nc2ccc(F)cc12
IC50 (parasite growth; DD2; 72 h, drug-resistant strain, blood stage): 0.0002 µM

C=C(C)[C@H]1Cc2c(ccc3c2O[C@@H]2COc4cc(OC)c(OC)cc4[C@@H]2C3=O)O1
IC50 (parasite growth; K1; drug-resistant strain, blood stage): > 2.5 µM

COc1cc(/C=C/C=C/c2ccccc2)oc(=O)c1
IC50 (parasite growth; K1; drug-resistant strain, blood stage): < 10 µM

CC(C)=CCC/C(C)=C/CNCCO[C@@H]1C[C@@H]2CC[C@@]1(C)C2(C)C
IC50 (parasite growth; 3D7; blood stage): 2 µg/mL

O=C(O)C(Cl)Cl
IC50 (parasite growth; 3D7; 48 h, blood stage): 5390 µM

O=CCCCCCOCCCc1cccnc1
IC50 (anti-HRPII ELISA; W2 chloroquine-resistant; 72 h): 180 ± 8.3 µM

CN(CCCCCCCCCCN(C)C(=O)Oc1cccc([N+](C)(C)C)c1)C(=O)Oc1cccc([N+](C)(C)C)c1
IC50 (parasite proliferation, SYBR Green; 3D7; 72 h): 0.38 µM

C/C=C(C)/C=C/C=C/[C@H](OC)[C@@H](C)[C@@H](OC)[C@@H](C)CCc1oc2c(O)c(OC)cc(OC)c2c(=O)c1C
IC50 (oxygen consumption; K1): 3.64 ± 1.78 µM

C[C@@H]1CC[C@H]2[C@@H](C)C(=O)O[C@@H]3O[C@@]4(C)CC[C@@H]1[C@]32OO4
IC50 (parasite growth, SYBR Green I; 3D7, chloroquine-sensitive): 0.0101 ± 0.0014 µM

CCCCCCC(C)CC1=C(O)C(=O)c2c(C)cccc2C1=O (stereo not drawn)
IC50 (parasite growth, [3H]hypoxanthine incorporation; W2 chloroquine-resistant, human erythrocytes): 0.191 µM

COc1ccc(C[C@H]2NC[C@H](O)[C@H]2OC(C)=O)cc1
IC50 (parasite proliferation, SYBR Green; 3D7; 72 h): 0.02 µM

CC[C@H](C)[C@H](NC(=O)[C@H]([C@@H](C)CC)N(C)C(C)=O)C(=O)N[C@H](C(=O)N[C@@H](CC(C)C)C(=O)[C@@]1(C)CO1)[C@@H](C)O
IC50 (gametocyte viability, alamarBlue; 3D7 stage III-V gametocytes; 72 h): 0.00142 ± 9e-05 µM
